{"data": "Measurements pooled from the literature", "note": "Each line is one published result; not all experiments were run side by side. ± gives the spread as reported."}
{"Molecule": "O=C1N=C(N2CCOCC2)CN1c1ccc(Cl)cc1", "system": "beagle dog, female, plasma", "conditions": "oral, 30 mg/kg, tablets, fed", "measurement": "Cmax", "value": "17700 ng/mL"}
{"Molecule": "C[C@]12CC[C@@H]3c4ccc(O)cc4CC[C@H]3[C@@H]1C[C@@H](O)[C@@H]2O", "test": "GC-MS", "system": "breast cancer women on NSAI, serum", "conditions": "vaginal, 0.03 mg, 24 h, day 0", "measurement": "minimum serum concentration", "value": "0 ng/mL"}
{"Molecule": "CC(C)(CC(=O)N1CCCC1)NCC(=O)N1C[C@@H](F)C[C@H]1C#N", "system": "Chinese type 2 diabetes patients, plasma", "conditions": "oral, 200 mg once daily, multiple doses", "measurement": "AUC(0-t) at steady state", "value": "3700 ng·h/mL"}
{"Molecule": "NC(=O)CC[C@@H]1NC(=O)[C@H](Cc2ccccc2)NC(=O)[C@H](Cc2ccc(O)cc2)NC(=O)CCSSC[C@@H](C(=O)N2CCC[C@H]2C(=O)N[C@H](CCCN=C(N)N)C(=O)NCC(N)=O)NC(=O)[C@H](CC(N)=O)NC1=O", "test": "UPLC-MS/MS", "system": "processed plasma extract", "conditions": "3.05 pg/mL, 24 h", "measurement": "reinjection stability", "value": "100%"}
{"Molecule": "Cc1cc(C)c2c(c1)[C@@H](N(Cc1cc(C(F)(F)F)cc(C(F)(F)F)c1)c1nnn(C)n1)CCCN2C[C@H]1CC[C@H](C(=O)O)CC1", "test": "LC-MS/MS", "system": "human, plasma", "conditions": "oral, 300 mg once daily, steady state", "measurement": "t1/2", "value": "37.1 h"}
{"Molecule": "CC(=O)N[C@@H](CCCNC(=N)N)C(=O)N[C@@H](C)C(=O)N[C@@H](CC(=O)O)C(=O)N[C@@H](C)C(=O)N[C@@H](CCCNC(=N)N)C(=O)N[C@@H](C)C(=O)N[C@@H](CC(=O)O)C(=O)N[C@@H](C)C(=O)N[C@@H](CCCNC(=N)N)C(=O)N[C@@H](C)C(=O)N[C@@H](CC(=O)O)C(=O)N[C@@H](C)C(=O)N[C@@H](CCCNC(=N)N)C(=O)N[C@@H](C)C(=O)N[C@@H](CC(=O)O)C(=O)N[C@@H](C)C(N)=O", "test": "rotational rheometry", "system": "1% w/v aqueous solution", "conditions": "shear rate range 1-1000 s^-1", "measurement": "viscosity", "value": "955 ± 46.7 Pa·s"}
{"Molecule": "Cc1ncc([N+](=O)[O-])n1CC(C)O (stereo not shown)", "system": "human liver microsomes", "conditions": "90 min", "measurement": "conversion to metabolites", "value": "≤ 1%"}
{"Molecule": "CC(C)(Sc1ccncc1-c1ccc(C#N)c2ccccc12)C(=O)O", "system": "human, male, Japanese, plasma", "conditions": "oral, 2.5 mg, day 6, fed, single dose", "measurement": "t1/2", "value": "8.65 h"}
{"Molecule": "CN[C@H](CC(C)C)C(=O)N[C@H]1C(=O)N[C@@H](CC(N)=O)C(=O)N[C@H]2C(=O)N[C@H]3C(=O)N[C@H](C(=O)N[C@H](C(=O)O)c4cc(O)cc(O)c4-c4cc3ccc4O)[C@H](O)c3ccc(c(Cl)c3)Oc3cc2cc(c3O[C@@H]2O[C@H](CO)[C@@H](O)[C@H](O)[C@H]2O[C@H]2C[C@](C)(N)[C@H](O)[C@H](C)O2)Oc2ccc(cc2Cl)[C@H]1O", "system": "BALB/c mouse, serum", "conditions": "ip, dose not given", "measurement": "serum globulin", "value": "3 ± 1 g/dL"}
{"Molecule": "des-acyl ghrelin (human)", "system": "mouse, wild type, hypothalamus", "conditions": "intravenous, 10 min", "measurement": "brain/serum ratio", "value": "9.62 µL/g"}
{"Molecule": "CCCOc1ccc([C@H]2CNC(=O)N2c2ccc3[nH]cnc3c2)cc1", "system": "human volunteers fasted, plasma", "conditions": "oral solution, 100 mg single dose, day 1, geometric mean", "measurement": "apparent terminal half-life", "value": "2.47 h"}
{"Molecule": "Cn1c(-c2ccc(C(N)=O)cc2F)nnc1C(C)(C)Oc1c(F)cc(Cl)cc1F", "system": "young Japanese adults, plasma", "conditions": "oral, 50 mg single dose, day 1, high-dose multiple-dose study", "measurement": "Tmax range over subjects", "value": "1 to 8 h"}
{"Molecule": "Cc1nc2cccc(OCC(C)(C)C(=O)NC(C)C)c2c(N)c1C(=O)O", "system": "female Sprague-Dawley rat, plasma", "conditions": "dietary, 30 mg/kg/day, day 90", "measurement": "Tmax", "value": "3 h"}
{"Molecule": "Cc1nc(Nc2ncc(C(=O)Nc3c(C)cccc3Cl)s2)cc(N2CCN(CCO)CC2)n1", "system": "male C57BL/6 mouse wild type, plasma", "conditions": "oral, 10 mg/kg", "measurement": "oral bioavailability", "value": "13.2%"}
{"Molecule": "CNCc1ccc(-c2[nH]c3cc(F)cc4c3c2CCNC4=O)cc1", "system": "human, fasted, plasma", "conditions": "oral, 600 mg, single dose, arithmetic mean", "measurement": "Cmax", "value": "819 ng/mL"}
{"Molecule": "CCCC[C@H](NC(C)=O)C(=O)N[C@H]1CCC(=O)NC[C@@H](C(=O)N[C@@H](Cc2c[nH]c3ccccc23)C(N)=O)NC(=O)[C@H](CCCNC(=N)N)NC(=O)[C@@H](Cc2ccccc2)NC(=O)[C@H](Cc2c[nH]cn2)NC1=O", "system": "beagle dog, male, plasma", "conditions": "subcutaneous, 40.0 mg/kg daily, day 1", "measurement": "Tmax", "value": "0.88 h"}
{"note": "Repeated from above:"}
{"Molecule": "Cc1nc2cccc(OCC(C)(C)C(=O)NC(C)C)c2c(N)c1C(=O)O", "system": "female Sprague-Dawley rat, plasma", "conditions": "dietary, 30 mg/kg/day, day 90", "measurement": "Tmax", "value": "3 h"}
{"Molecule": "Cc1nc(Nc2ncc(C(=O)Nc3c(C)cccc3Cl)s2)cc(N2CCN(CCO)CC2)n1", "system": "male C57BL/6 mouse wild type, plasma", "conditions": "oral, 10 mg/kg", "measurement": "oral bioavailability", "value": "13.2%"}
